Published values gathered from unrelated publications.
Compare with care: the assays were run in different laboratories.
Target: Dual specificity protein kinase CLK3 (CLK3, Homo sapiens, UniProt P49761)

Cc1ccc(-c2c(/C=C(\C#N)C(=O)NC(C)C)n(CCCO)c3ncnc(N)c23)cc1 — remaining binding (cell-free assay, competition with immobilised ligand; 1 µM): 79%
C=CC(=O)Nc1cccc(-c2cnc3[nH]cc(C(=O)NC(C)(C)C)c3n2)c1 — inhibition (enzyme activity, inhibitor; 0.1 µM): 15%
CNC1C[S+]2CC[S+]3CC[S+](C1)[Ru-4]321([N]=C=S)[n]2c3ccc(OC)cc3c3c4c(c5cc(F)c[n+]1c5c32)C(=O)NC4=O (centres unmarked) — remaining binding (KinomeScan; 0.1 µM; baseline: untreated): 100%
COc1ccc(NC(=O)Nc2ccc3c(c2)C(=O)N(C(C)CO)CC(C)C(CN(C)Cc2ccc4c(c2)OCO4)O3)cc1 (centres unmarked) — remaining activity (kinase activity, KinaseProfiler; 0.03 µM, species human; baseline: control): 93%
NC(=O)C[C@H]1CCc2sc3ncnc(O[C@H]4CC[C@H](N5CCOCC5)CC4)c3c21 — inhibition (enzyme activity, inhibitor; 10 µM): -4%
COc1c(OCCCN2CCOCC2)ccc2c1N=C(NC(=O)c1cnc(N)nc1)N1CCN=C21 — remaining activity (kinase activity, inhibitor; 1 µM; baseline: untreated control): 117%
Cc1cccc(O[C@H]2CCC[C@@H](C(C)CNCc3ccncc3)C2)c1 (relative stereo) — inhibition (enzyme activity, inhibitor; 1 µM): 2%
C=CC(=O)N1CCCC(n2c(=O)c3ncccc3n(Cc3ccc(Oc4ccccc4)cc3)c2=O)C1 (centres unmarked) — remaining binding (cell-free assay, competition with immobilised ligand; 1 µM): 95%
Nc1ncc2c(n1)-c1c([nH]c3ccc(C4=CCOCC4)cc13)CCC2 — remaining binding (binding, competition with immobilised ligand; 1 µM): 90%
CCn1cc(C(=O)O)c(=O)c2c(N)c(F)c(NC3CCCCC3)cc21 — inhibition (kinase activity; 0.1 µM, with: ATP at Km): -6.8%
CC(C)=CC1OC(C)(C)C2C=C3C(=O)C(Cl)=CC(O)C3C3C(O)C4OC4C(=O)C132 (centres unmarked) — remaining binding (cell-free assay, competition with immobilised ligand; 10 µM): 100%
CNC(=O)C[C@H](Cc1ccc(C#N)cc1)NC(=O)c1cc(-c2ccc(CN[C@H](C)c3ccc(C)cc3)o2)ccc1Cl — activity vs control (enzyme activity, inhibitor; 1 µM): 99%
COc1c(Cl)cccc1Nc1c(-c2ccncc2C#C[C@@]2(C)CCCN2C(=O)/C=C/CN(C)C)[nH]c2c1C(=O)NCC2 — remaining binding (binding, competition with immobilised ligand; 3 µM): 100%
Nc1ncc(-c2cc(-c3cnn(CC(F)(F)F)c3)ncc2F)nc1C(=O)NC1CNCC(F)C1 (centres unmarked) — remaining activity (enzyme activity; 1 µM; baseline: DMSO control): 108%

Some of these lines once more:
COc1ccc(NC(=O)Nc2ccc3c(c2)C(=O)N(C(C)CO)CC(C)C(CN(C)Cc2ccc4c(c2)OCO4)O3)cc1 (centres unmarked) — remaining activity (kinase activity, KinaseProfiler; 0.03 µM, species human; baseline: control): 93%
Cc1cccc(O[C@H]2CCC[C@@H](C(C)CNCc3ccncc3)C2)c1 (relative stereo) — inhibition (enzyme activity, inhibitor; 1 µM): 2%
